Measurements pooled from the literature.
Lines come from different studies, so protocols differ. ± gives the spread as reported. ≈ marks a conversion by molar mass, not a printed value.

Cc1cc(/C=C/C#N)cc(C)c1-n1cnc2cnc(Nc3ccc(C#N)cc3)nc21 — EC50 (HIV-1; viral replication, single-round infection; RT mutant L234I): 0.1 ± 0.04 nM
CC[C@H](C)[C@H](NC(=O)[C@H](CCCN)NC(=O)[C@H](CC(=O)O)NC(=O)[C@H](CC(C)C)NC(=O)C(C)(CC(C)C)NC(=O)[C@@H](NC(=O)[C@H](CO)NC(=O)[C@H](Cc1ccc(O)cc1)NC(=O)[C@H](CC(=O)O)NC(=O)[C@H](CO)NC(=O)[C@@H](NC(=O)[C@H](Cc1ccccc1)NC(=O)[C@@H](NC(=O)CNC(=O)[C@H](CCC(=O)O)NC(=O)C(C)(C)NC(=O)[C@@H](N)Cc1ccc(O)cc1)[C@@H](C)O)[C@@H](C)CC)[C@@H](C)CC)C(=O)N[C@@H](Cc1c[nH]cn1)C(=O)N[C@@H](CCC(N)=O)C(=O)NC(C)(C)C(=O)N[C@@H](CC(=O)O)C(=O)N[C@@H](Cc1ccccc1)C(=O)N[C@H](C(=O)N[C@@H](CCC(=O)O)C(=O)N[C@@H](Cc1ccc(O)cc1)C(=O)N[C@@H](CCCCNC(=O)COCCOCCNC(=O)COCCOCCNC(=O)CC[C@H](NC(=O)CCCCCCCCCCCCCCCCCCC(=O)O)C(=O)O)C(=O)N[C@@H](CC(C)C)C(=O)N[C@@H](CCC(=O)O)C(=O)NCC(=O)NCC(=O)N1CCC[C@H]1C(=O)N[C@@H](CO)C(=O)N[C@@H](CO)C(=O)NCC(=O)N[C@@H](C)C(=O)N1CCC[C@H]1C(=O)N1CCC[C@H]1C(=O)N1CCC[C@H]1C(=O)N[C@@H](CO)C(N)=O)C(C)C (stereo partly shown) — Vz/F (human, type 2 diabetes; subcutaneous, 25 mg single dose, geometric mean): 8.79 L
CCCCCCCCCCCCCCCC(=O)N[C@@H](CCC(=O)NCCCC[C@H](NC(=O)[C@H](CC(=O)O)NC(=O)[C@H](CO)NC(=O)[C@@H](NC(=O)[C@H](Cc1ccccc1)NC(=O)[C@@H](NC(=O)CNC(=O)[C@H](CCC(N)=O)NC(=O)[C@H](C)NC(=O)[C@@H](Cc1ccc(O)cc1)NC(C)=O)[C@@H](C)O)[C@@H](C)O)C(=O)N[C@@H](CO)C(=O)N[C@@H](CCCCN)C(=O)N[C@@H](Cc1ccc(O)cc1)C(=O)N[C@@H](CC(C)C)C(=O)N[C@@H](CC(=O)O)C(=O)N[C@@H](CCC(=O)O)C(=O)N[C@@H](CCCNC(=N)N)C(=O)N[C@@H](C)C(=O)N[C@@H](C)C(=O)N[C@@H](CCC(N)=O)C(=O)N[C@@H](CC(=O)O)C(=O)N[C@@H](Cc1ccccc1)C(=O)N[C@H](C(=O)N[C@@H](CCC(N)=O)C(=O)N[C@@H](Cc1c[nH]c2ccccc12)C(=O)N[C@@H](CC(C)C)C(=O)N[C@@H](CC(C)C)C(=O)N[C@@H](CCC(=O)O)C(=O)NCC(=O)NCC(=O)N1CCC[C@H]1C(=O)N[C@@H](CO)C(=O)N[C@@H](CO)C(=O)NCC(=O)N[C@@H](C)C(=O)N1CCC[C@H]1C(=O)N1CCC[C@H]1C(=O)N1CCC[C@H]1C(=O)N[C@@H](CO)C(N)=O)C(C)C)C(=O)O — Tmax (male cynomolgus monkey, plasma; subcutaneous, 0.0161 mg/kg): 7 h
O=C(NC1CCN(c2ncnc3[nH]cnc23)CC1)c1cccc(NS(=O)(=O)c2ccc(C(F)(F)F)cc2)c1 — inhibition (monkeypox virus E1/E12; 3.125 µM): 9.78%
CCCCCCCCCCCCCCCC(=O)N[C@@H](CCC(=O)NCCOCCOCCC(=O)NCCOCCOCCC(=O)NCCCC[C@H](NC(=O)[C@H](CC(=O)O)NC(=O)[C@H](CC(C)C)NC(=O)[C@H](Cc1ccc(O)cc1)NC(=O)[C@H](CCCCN)NC(=O)[C@H](CO)NC(=O)[C@H](Cc1ccc(O)cc1)NC(=O)[C@H](CC(=O)O)NC(=O)[C@H](CO)NC(=O)[C@@H](NC(=O)[C@H](Cc1ccccc1)NC(=O)[C@@H](NC(=O)CNC(=O)[C@H](CCC(N)=O)NC(=O)[C@@H](CO)NC(=O)[C@@H](N)Cc1c[nH]cn1)[C@@H](C)O)[C@@H](C)O)C(=O)N[C@@H](CCCNC(=N)N)C(=O)N[C@@H](CCCNC(=N)N)C(=O)N[C@@H](C)C(=O)N[C@@H](CCC(N)=O)C(=O)N[C@@H](CC(=O)O)C(=O)N[C@@H](Cc1ccccc1)C(=O)N[C@H](C(=O)N[C@@H](CCC(N)=O)C(=O)N[C@@H](Cc1c[nH]c2ccccc12)C(=O)N[C@@H](CC(C)C)C(=O)N[C@@H](CC(C)C)C(=O)N[C@@H](CC(N)=O)C(=O)N[C@H](C(=O)NCC(=O)NCC(=O)N1CCC[C@H]1C(=O)N[C@@H](CO)C(=O)N[C@@H](CO)C(=O)NCC(=O)N[C@@H](C)C(=O)N1CCC[C@H]1C(=O)N1CCC[C@H]1C(=O)N1CCC[C@H]1C(=O)N[C@@H](CO)C(N)=O)[C@@H](C)O)C(C)C)C(=O)O — total bilirubin (rhesus monkey, female; subcutaneous, 300 µg/kg once daily, 28 days): 4.7 ± 1.7 µmol/L
COCC(C)N1CCn2cc(C(=O)NCc3ccc(F)cc3F)c(=O)c(O)c2C1=O (stereo not shown) — EC50 (human immunodeficiency virus 1; single-round vector infection; integrase R263K): 12.6 ± 0.7 nM
COc1ccc(-c2cnnn2-c2cc(OC)c(OC)c(OC)c2)cc1N — EC50 (PC-3; cytotoxicity, nuclei counting; 24 h): 9.23 ± 0.87 nM
CC[C@H](C)[C@H](NC(=O)[C@H](CCCCN)NC(=O)[C@H](CCCCN)NC(=O)[C@H](CC(C)C)NC(=O)[C@H](Cc1c[nH]c2ccccc12)NC(=O)CN)C(=O)NCC(=O)N[C@@H](CCCCN)C(=O)N[C@@H](CCCCN)C(=O)N[C@H](C(=O)N[C@@H](CCC(=O)O)C(=O)N[C@@H](CCCNC(=N)N)C(=O)N[C@H](C(=O)NCC(=O)N[C@@H](CCC(N)=O)C(=O)N[C@@H](Cc1c[nH]cn1)C(=O)N[C@H](C(=O)N[C@@H](CCCNC(=N)N)C(=O)N[C@@H](CC(=O)O)C(=O)N[C@@H](C)C(=O)N[C@H](C(=O)N[C@H](C(=O)N[C@@H](CCC(N)=O)C(=O)N[C@H](C(=O)N[C@H](C(=O)NCC(=O)N[C@H](C(=O)N[C@@H](C)C(=O)N[C@@H](CCC(N)=O)C(=O)N[C@@H](CCC(N)=O)C(=O)N[C@@H](C)C(=O)N[C@@H](C)C(=O)N[C@@H](CC(N)=O)C(=O)N[C@H](C(=O)N[C@@H](C)C(=O)N[C@@H](C)C(=O)N[C@H](C(=O)N[C@@H](CC(C)C)C(=O)N[C@@H](CCCCN)C(N)=O)[C@@H](C)O)C(C)C)C(C)C)[C@@H](C)CC)[C@@H](C)O)[C@@H](C)CC)[C@@H](C)O)[C@@H](C)O)C(C)C)[C@@H](C)CC — MIC (Escherichia coli; ATCC 25922, CAMHB with 10% mouse serum): 0.25 µg/mL (≈ 0.0595 µM)
Cn1ccn2cc(C(=O)NCc3ccc(F)cc3F)c(=O)c(O)c2c1=O — EC50 (human immunodeficiency virus 1; single-round vector infection; integrase R263K): 6.8 ± 0.4 nM
Cc1cc(/C=C/C#N)cc(C)c1Nc1nc(Nc2ccc(C#N)cc2)ncc1N — EC50 (HIV-1; viral replication, single-round infection; RT mutant M184I): 0.12 ± 0.03 nM
O=C(NCc1ccc(F)cc1F)c1cn2ccn(CCCCO)c(=O)c2c(O)c1=O — EC50 (human immunodeficiency virus 1; single-round vector infection; integrase N155H): 45.5 ± 8.3 nM
CC[C@H](C)[C@@H]([C@@H](CC(=O)N1CCC[C@H]1[C@H](OC)[C@@H](C)C(=O)N[C@H](C)[C@@H](O)c1ccccc1)OC)N(C)C(=O)[C@@H](NC(=O)[C@H](C(C)C)N(C)C(=O)OCc1ccc(NC(=O)[C@H](CCCNC(N)=O)NC(=O)[C@@H](NC(=O)CCCC(=O)NCCC(=O)N(C)CC(=O)N(C)CC(=O)N(C)CC(=O)N(C)CC(=O)N(C)CC(=O)N(C)CC(=O)N(C)CC(=O)N(C)CC(=O)N(C)CC(=O)N(C)CC(=O)N[C@H]2CSCCC(=O)N3CN4CN(C3)C(=O)CCSC[C@H](NC(=O)[C@@H](CC(=O)O)NC(=O)[C@H](Cc3cccc5ccccc35)NC(=O)[C@@H]3CCCN3C2=O)C(=O)N[C@@H](CCSC)C(=O)N[C@@H](CCCCNC(=N)N)C(=O)N[C@@H](CC(=O)O)C(=O)N[C@@H](Cc2c[nH]c3ccccc23)C(=O)N[C@@H](CO)C(=O)N[C@@H]([C@@H](C)O)C(=O)N2CCC[C@H]2C(=O)N2C[C@H](O)C[C@H]2C(=O)N[C@@H](Cc2c[nH]c3ccccc23)C(=O)N[C@H](C(N)=O)CSCCC4=O)C(C)C)cc1)C(C)C — solubility (aqueous buffer; pH 7.4): 800 µg/mL (≈ 192 µM)
Cc1cn(C2CCC(OC(C(=O)O)P(=O)(O)O)C2)c(=O)[nH]c1=O (racemic) — fold resistance (HIV-1 reverse transcriptase F61A; enzyme activity, inhibitor; with: poly(rA)·oligo(dT), [3H]dTTP; reference: mutant over wild type): 31 fold

For quick reference, copied from above:
CC[C@H](C)[C@H](NC(=O)[C@H](CCCCN)NC(=O)[C@H](CCCCN)NC(=O)[C@H](CC(C)C)NC(=O)[C@H](Cc1c[nH]c2ccccc12)NC(=O)CN)C(=O)NCC(=O)N[C@@H](CCCCN)C(=O)N[C@@H](CCCCN)C(=O)N[C@H](C(=O)N[C@@H](CCC(=O)O)C(=O)N[C@@H](CCCNC(=N)N)C(=O)N[C@H](C(=O)NCC(=O)N[C@@H](CCC(N)=O)C(=O)N[C@@H](Cc1c[nH]cn1)C(=O)N[C@H](C(=O)N[C@@H](CCCNC(=N)N)C(=O)N[C@@H](CC(=O)O)C(=O)N[C@@H](C)C(=O)N[C@H](C(=O)N[C@H](C(=O)N[C@@H](CCC(N)=O)C(=O)N[C@H](C(=O)N[C@H](C(=O)NCC(=O)N[C@H](C(=O)N[C@@H](C)C(=O)N[C@@H](CCC(N)=O)C(=O)N[C@@H](CCC(N)=O)C(=O)N[C@@H](C)C(=O)N[C@@H](C)C(=O)N[C@@H](CC(N)=O)C(=O)N[C@H](C(=O)N[C@@H](C)C(=O)N[C@@H](C)C(=O)N[C@H](C(=O)N[C@@H](CC(C)C)C(=O)N[C@@H](CCCCN)C(N)=O)[C@@H](C)O)C(C)C)C(C)C)[C@@H](C)CC)[C@@H](C)O)[C@@H](C)CC)[C@@H](C)O)[C@@H](C)O)C(C)C)[C@@H](C)CC — MIC (Escherichia coli; ATCC 25922, CAMHB with 10% mouse serum): 0.25 µg/mL (≈ 0.0595 µM)
